Assay results gathered from unrelated publications.
Every numbered part comes from another study and shows a few of its results, in no order.

Study 1
Target: RING finger protein unkempt homolog, zinc fingers 1-6, GST-SBP tag (UNK, Homo sapiens, UniProt Q9C0B0, residues 30-357)
Technique: RNA Bind-n-Seq
Molecule type: RNA
Sample: in vitro
Tested at: not given
Setting: RNA with constant flanks, human-mouse chimeric sites, ends assumed
Reference: input RNA pool
Reading: higher = stronger binding
Measurement: bound/input enrichment
Constant ends, left off below: GGGAGUUCUACAGUCCGACGAUC … CAACAGAGGAUUGAGCAUCA
Construct (chain): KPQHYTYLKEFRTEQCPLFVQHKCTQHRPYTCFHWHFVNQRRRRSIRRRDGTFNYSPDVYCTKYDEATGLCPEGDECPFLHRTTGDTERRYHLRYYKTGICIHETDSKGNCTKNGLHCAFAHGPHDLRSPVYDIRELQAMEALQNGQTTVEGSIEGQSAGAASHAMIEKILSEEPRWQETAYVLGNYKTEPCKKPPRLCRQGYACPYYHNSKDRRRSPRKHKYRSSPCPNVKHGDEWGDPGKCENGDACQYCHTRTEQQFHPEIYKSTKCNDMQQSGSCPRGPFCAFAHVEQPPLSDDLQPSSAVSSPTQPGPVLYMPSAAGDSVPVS
GCGAACAGGACUACAGAAAUGCUGGUAAUUUCAGUCACUUGCUGAUGACUUCUGAUGUCCCAGCAAAUGUUGGCAUUGUUGACUGCUCUGUGAAGACUUCUGAGGACCCACGUCUAAGGU: 0.0747 ratio
UCAGGAACCCAGACAAAUAUGAAUGUAAAUGAAGUCAUUAGCAAUAGAGCAAUUGAAAUGUUAGGAGGUGAACUUGGCAGCAAGAAGCCUGUGCACCCCAAUGAUCAUGUUAACAAAAGC: 1.8 ratio
GAUCAUGAACCACCAUCAGAAAUGAAGAUGAGAUUACCCAGACGAGCCAAAACAGCUAGCACUAGAAAAAGUAAACUUAACCUUGCAGAGUUCCUUAAUGAAGAUACAAGUUAAGAGAGC: 3.92 ratio
CCUGCUCAGAUCACCAUGAAAGUAAUCCAAGGCUUGUAUAGUGGGGUCACCACAGUGGAACUGGACACCCUGGCUGCUGAGACAGCCGCGACCUUGACCACGAAGCACCCUGACUAUGCC: 0.163 ratio
UACUCAACUUUCUUUCCACAUUUUGAAUUCCAAGAUGUUAUUCCUCCAGAUGACUUCCUAACGAGUGAUGAAGAGCAAGAUUUGGUUUUAUUUGGAACUAUGAGAGGACAAGUUGUUGGA: 0.177 ratio
UCUUAACUUAUUCAUUUAACUUAUUUUUAUAGCUAGAGCAAUAUUGUUAGUCUUAGACAAUAGCUCACAUCUUUACAGAAGCAUGCCCUCCCUGUCCAUUUGUCUUAUAACAUGACCCAG: 64.3 ratio
CUCAGAGAUGUGGCAUAUCAGUAUGUGAAAAAGGGGUCUCGUAUAUUUGUGGAAGGGAAAGUGGACUAUGGCGAGUACAUGGAUAAAAACAAUGUGAGGCGACAAGCAACAACAAUCAUA: 0.352 ratio

Study 2
Target: TAR DNA-binding protein 43, full length, His tag (TARDBP, Homo sapiens, UniProt Q13148, residues 1-414)
Technique: RNA Bind-n-Seq
Molecule type: RNA
Sample: in vitro
Tested at: 20 nM
Setting: 6-mer, flanks averaged, single round
Added: 150 mM KCl
Reference: input library
Reading: higher = stronger binding
Measurement: 6-mer enrichment (R)
AACGCU: 0.606
ACGGCG: 1.62
UUCUAA: 0.602
UCGCUG: 0.76
GCCCGG: 1.27
UUAAGU: 0.638
CGCUUA: 0.593
ACAAUG: 0.735
GGAUGA: 1.6

Study 3
Target: Prothrombin, mature alpha-thrombin (F2, Homo sapiens, UniProt P00734)
Technique: aptamer microarray, sandwich
Molecule type: DNA with 2'F-ANA
Sample: in vitro
Tested at: 200 nM
Setting: whole 15-mer aptamer, many near background
Added: Cy3 exosite-II aptamer, 400 nM
Reading: higher = stronger binding
Measurement: mean fluorescence intensity
Oligonucleotide: GGTTGGTGTGGTTGG
2'F-ANA at 1 2 3 4 5 9 10 13 14: 56.8 a.u.
2'F-ANA at 4 5 7 8 9 14: 45.4 a.u.
2'F-ANA at 1 2 6 7 13 14 15: 53.3 a.u.
2'F-ANA at 2 3 5 12 13 15: 144 a.u.
2'F-ANA at 3 7 8 9 10 12 13 14 15: 432 a.u.
2'F-ANA at 2 3 4 6 10 13 14: 173 a.u.
2'F-ANA at 1 2 3 5 8 9 11 12 13: 79.7 a.u.
2'F-ANA at 1 3 7 9 10 11 14 15: 59.4 a.u.
2'F-ANA at 6 10 14 15: 150 a.u.

Single results of other studies
PhoQ, residues 284 288 289 292 302 303 ASTSDA  fold induction (PhoP, residues 12 14 15 18 19 VQGLL (Escherichia coli, UniProt P23836); Sort-seq, measured: YFP reporter; E. coli; PhoQ-PhoP variant library, added: 10 µM Mg2+; reference: high Mg2+ state, higher = stronger signaling): 17.4

Excerpt of the above (study 2):
UUCUAA: 0.602
UCGCUG: 0.76
GCCCGG: 1.27
UUAAGU: 0.638
